# Measured values of several laboratories.
# Lines come from different studies, so protocols differ. ± marks the error that the study gave. Ends that are not written are not given here.
Substance,target or system,test,system,setting,scale,quantity,value
QPLRKLCILHRNPGRCYQKIPAFYYNQKKKQCEGFTWSGCGGNSNRFKTIEECRRTCIRK (dendrotoxin I; ends and bridges not checked; cysteine pairing not given here; sequence looked up),"Kcnma1 (Rattus norvegicus, UniProt Q62976)",channel block,rat,with: bound BP,relative to: BP-bound over unoccupied channel,affinity decrease,8.4 fold
SVASQSIIAY,,AIM,"peptide, CD8+ T cells from PBMC, human donors",dose not given,,response magnitude per positive donor,107
"ACE2/pIgR VHH6 Fc fusion ACE2 , Fc fusion (Homo sapiens)","spike RBD RBD (SARS-CoV-2, UniProt P0DTC2)",BLI,,,,koff,1.82e-05 s⁻¹
"FolB (Mycobacterium tuberculosis, UniProt P9WNC5)",Nc1nc2c(c(=O)[nH]1)N=C([C@H](O)[C@H](O)CO)CN2,steady-state kinetics,,"pH 7, 25 °C",,kcat,0.0054 ± 0.0002 s⁻¹
BKRF4 fragment D81A/W84A/P86A/Y94A (Epstein-Barr virus),H2A/H2B dimer (Homo sapiens),magnetic tweezers,,inner wrap; alanine mutant,,unwrapping force,12 pN
"E1 N436A, x",itself,oligonucleotide displacement,,,"relative to: wild-type E1, higher = greater defect",helicase activity defect,2 fold
Spike receptor binding domain (SARS-CoV-2),"ACE2 recombinant ectodomain 18-740 (Homo sapiens, UniProt Q9BYF1)",SPR,,,,Kd,77.1 nM
nef fragment L112D (HIV-1) (sequence not shown),HCK SH3 domain (Homo sapiens),SEC-MALS,,,,molecule per partner,1
"Nef monomer, full length (HIV-1, UniProt P03407)",BTK SH3-SH2 dimer (Mus musculus),SPR,,,,Kd,7640 nM
NVYADSFVIR,,AIM,"peptide, CD8+ T cells from PBMC, human donors",dose not given,,response magnitude per positive donor,108
RSV F/foldon soluble ectodomain S190F/V207L/D486H/E487Q/F488W/D489H (respiratory syncytial virus),itself,SEC,,,,subunits per oligomer,3
"MnTx-1 mature (Pterinochilus murinus, UniProt C0HMD2)","KCNA6 (Homo sapiens, UniProt P17658)","K+ current inhibition, inhibitor, patch-clamp",,whole-cell,,IC50,4.4 nM
GRKKRRQRRRPQEDGGSFWYGAMKALYG (designed peptide),"CIB1 (Homo sapiens, UniProt Q99828)","competition with peptide, competitor, TR-FRET",peptide,,,IC50,192 ± 17 nM
